Measurements pooled from the literature.
Parts stem from different laboratories: compare values within a part only.

Set 1
Target: Ras GTPase-activating protein-binding protein 1, full length (G3BP1, Homo sapiens, UniProt Q13283)
Chain of UniProt Q13283 (whole entry, looked up): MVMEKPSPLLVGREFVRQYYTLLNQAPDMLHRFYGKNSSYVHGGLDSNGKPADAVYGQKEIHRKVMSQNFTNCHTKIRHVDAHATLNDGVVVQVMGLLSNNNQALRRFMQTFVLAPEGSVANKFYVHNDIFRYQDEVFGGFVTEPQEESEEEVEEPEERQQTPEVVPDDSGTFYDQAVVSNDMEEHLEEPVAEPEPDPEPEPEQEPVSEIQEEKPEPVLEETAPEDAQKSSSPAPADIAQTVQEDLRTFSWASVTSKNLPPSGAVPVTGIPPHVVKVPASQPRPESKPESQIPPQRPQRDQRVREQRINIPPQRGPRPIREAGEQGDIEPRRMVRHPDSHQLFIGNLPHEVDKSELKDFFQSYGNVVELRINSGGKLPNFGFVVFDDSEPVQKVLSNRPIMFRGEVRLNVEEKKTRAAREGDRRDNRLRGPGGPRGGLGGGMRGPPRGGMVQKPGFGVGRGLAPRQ
Technique: RNA Bind-n-Seq
Form: RNA
Medium: in vitro
Tested at: 200 nM
Setting: whole 134-nt RNA, ends assumed
With: 150 mM LiCl
Relative to: input library
Reading: higher = stronger binding
All molecules: 7-deaza-guanosine replaces G
Shared flanks, not repeated: GGGAGUUCUACAGUCCGACGAUC … UGGAAUUCUCGGGUGUCAAGG
`UCCUCAAGUCCUGUGCUACACAUCGUAUGUACCGAAUCGGGGAGGGAGGAGGAAAGUAUUAUGUUACGCCGUUCGGAUCUGCACUUCCAG` gave a log2 enrichment of -0.271.
`UCCUGUGCUACACAUCGUAUGUACCGAAUCGGGAAAGGGAAAAAAAGGGAAAAAAAGGGAAAGUAUUAUGUUACGCCGUUCGGAUCUGCA` has a log2 enrichment of 0.536.
`UCAAGUCCUGUGCUACACAUCGUAUGUACCGAAUCGGAAAGGAAAAAGGAAAGGAAAGUAUUAUGUUACGCCGUUCGGAUCUGCACUUCC` gave a log2 enrichment of -0.265.
`CCUGUGCUACACAUCGUAUGUACCGAAUCGGGGUUUUUGGGGUUUUUGGGGUUUUUGGGGAAAGUAUUAUGUUACGCCGUUCGGAUCUGC` gave a log2 enrichment of 0.604.
The log2 enrichment of `GUCCUGUGCUACACAUCGUAUGUACCGAAUCGGAAAAAAGGGAAAAAAGGGAAAAAAGGAAAGUAUUAUGUUACGCCGUUCGGAUCUGCA` is reported as -0.511.
`CAAGUCCUGUGCUACACAUCGUAUGUACCGAAUCGGGGCCGGGCCGGGGCCGGGGAAAGUAUUAUGUUACGCCGUUCGGAUCUGCACUUC` gave a log2 enrichment of 0.0211.
For `GCAGGAAGUAAAAACAAAUGGAAAUGCUUCGGAUAGUGGCAGGGGUGGGGGUUGCUAAGGAAAGGGUGGGAUGAGAGUGGGUAAAGAGUU`, the log2 enrichment was 0.0861.
For `UUCCUCAAGUCCUGUGCUACACAUCGUAUGUACCGAAUCGGCGGCGGCGGGAAAGUAUUAUGUUACGCCGUUCGGAUCUGCACUUCCAGC`, the log2 enrichment was 1.23.

Set 2
Target: Interferon regulatory factor 3, full length, phosphomimetic (IRF3, Homo sapiens, UniProt Q14653, residues 1-427, S386D/S396D/S398D/S402D/T404D/S405D)
Technique: protein-binding microarray
Form: double-stranded DNA, one strand shown
Medium: in vitro
Tested at: 2540 nM top
Setting: 60-bp whole probe
With: salmon DNA 0.4 mg/ml
Relative to: random background probes
Reading: higher = stronger binding
Shared flanks, not repeated: GCCTAGCAC … GTCTTGATTCGCTTGACGCTGCTG
Construct (chain): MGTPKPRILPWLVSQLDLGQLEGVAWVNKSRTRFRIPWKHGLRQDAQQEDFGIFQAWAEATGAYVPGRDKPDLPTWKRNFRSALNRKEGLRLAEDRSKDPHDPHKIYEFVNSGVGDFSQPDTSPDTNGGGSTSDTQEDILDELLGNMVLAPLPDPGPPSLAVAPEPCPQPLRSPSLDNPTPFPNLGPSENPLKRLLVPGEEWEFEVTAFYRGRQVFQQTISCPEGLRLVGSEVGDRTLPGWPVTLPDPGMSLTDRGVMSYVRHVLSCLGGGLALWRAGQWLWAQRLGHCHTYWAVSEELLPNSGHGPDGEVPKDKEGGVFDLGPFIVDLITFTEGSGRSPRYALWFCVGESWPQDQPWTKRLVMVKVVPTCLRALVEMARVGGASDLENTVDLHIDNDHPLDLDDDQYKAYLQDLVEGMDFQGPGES
`TGTGGACCTTGGGAGATTTCGTGCTAG` — result for “fitted relative affinity”: -0.895 z-score.
`TTAGGCTTCGACTATCGGTTAGTGCTA`: “fitted relative affinity” -0.59 z-score.
`GACGATCTCAGACTTGAGACGTGCTAG` — result for “fitted relative affinity”: 0.494 z-score.
`CCTTGTCCCCTCAGGTATGGGTGCTAG` — result for “fitted relative affinity”: 1.14 z-score.
For `TCAACCATCTCATATAAAACTGTGCTA`, “fitted relative affinity” read 0.976 z-score.
For `TTAGGACTGCTCTTCCTTTAGTGCTAG`, “fitted relative affinity” read -0.301 z-score.
Under “fitted relative affinity”, `GACGGTTTCGACTATCGGGGCGTGCTA` is recorded as 2.86 z-score.
Under “fitted relative affinity”, `TTAGGAATCGGTATCGGTTAGTGCTAG` is recorded as 3.1 z-score.
Under “fitted relative affinity”, `TTACGTTTCGGGACTGGGTTAGTGCTA` is recorded as 3.19 z-score.
Under “fitted relative affinity”, `TTAGGTATCGGGACTGGGTAAGTGCTA` is recorded as 1.39 z-score.
Under “fitted relative affinity”, `GACGATATCAGTCTCGCGACGTGCTAG` is recorded as 1.07 z-score.
`TCAGCTCTTATATACCTGACTGTGCTA` — result for “fitted relative affinity”: 0.142 z-score.
`TTAGATATTAGTCTCGATTAGTGCTAG`: “fitted relative affinity” 0.191 z-score.
For `GACGGTTTCCTAATCCTGACGTGCTAG`, “fitted relative affinity” read 6.95 z-score.
For `TATTCCCCATCACTCACTCTGTGCTAG`, “fitted relative affinity” read 1.36 z-score.
`GAATCTCCCATTATATTTTAGTGCTAG` — result for “fitted relative affinity”: 1.75 z-score.
`TTAGGTCTCGGACTGGCTTAGTGCTAG`: “fitted relative affinity” -0.463 z-score.
`TTAGGTTACCTTTCCCTTTAGTGCTAG` — result for “fitted relative affinity”: 7.5 z-score.
For `TCACATCTCTGTCCGTGACTGTGCTAG`, “fitted relative affinity” read 0.903 z-score.

Set 3
Target: Histone acetyltransferase KAT6A, winged helix 1, GST fusion (KAT6A, Homo sapiens, UniProt Q92794, residues 1-85)
Technique: protein binding microarray
Form: double-stranded DNA, one strand shown
Medium: in vitro
Tested at: not given
Setting: 8-mer, flanks averaged, mean of 2 arrays, mostly near background
Relative to: not given
Reading: higher = stronger binding
Construct (chain): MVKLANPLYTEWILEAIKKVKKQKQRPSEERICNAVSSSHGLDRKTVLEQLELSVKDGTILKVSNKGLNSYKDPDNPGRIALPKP
The E-score of `AAGCCACA` is reported as -0.178.
With `CTCGGAAC` the E-score was 0.0513.
`ATACACTC` gave an E-score of -0.108.
`CTTGCTCA` gave an E-score of -0.138.
With `GAATAGAC` the E-score was -0.182.
With `GCAGCCCA` the E-score was -0.0264.
For `CGAAGAGC`, the E-score was 0.244.
With `ACGAAACG` the E-score was 0.0722.
The E-score of `CACGGTTA` is reported as 0.129.
For `GACTACTA`, the E-score was -0.0613.
For `CAACATAG`, the E-score was -0.163.
`GGGCCGTA` has an E-score of 0.312.
`ACGAACAA` gave an E-score of 0.00456.
`CCCCGCCG` has an E-score of 0.457.
With `TAGACACA` the E-score was -0.16.
`CATTGATA` has an E-score of -0.042.
`AAACCTGC` gave an E-score of -0.191.
For `TAGCGCCA`, the E-score was 0.23.
For `ACCAGAGG`, the E-score was -0.223.
The E-score of `GCGCCGAA` is reported as 0.395.
The E-score of `AGCAGAGG` is reported as -0.21.
For `CAGGGGTC`, the E-score was 0.01.
For `AAGGGCAG`, the E-score was -0.0997.
For `GCGCGATA`, the E-score was 0.371.

Set 4
Target: PABPC1L2, full length, GST fusion (mouse, UniProt A0ABA7IW68)
Technique: RNAcompete
Form: RNA
Medium: in vitro
Tested at: 20 nM
Setting: 7-mer, probes averaged, single round
Relative to: mean of 7-mers
Reading: higher = stronger binding
Target sequence (chain): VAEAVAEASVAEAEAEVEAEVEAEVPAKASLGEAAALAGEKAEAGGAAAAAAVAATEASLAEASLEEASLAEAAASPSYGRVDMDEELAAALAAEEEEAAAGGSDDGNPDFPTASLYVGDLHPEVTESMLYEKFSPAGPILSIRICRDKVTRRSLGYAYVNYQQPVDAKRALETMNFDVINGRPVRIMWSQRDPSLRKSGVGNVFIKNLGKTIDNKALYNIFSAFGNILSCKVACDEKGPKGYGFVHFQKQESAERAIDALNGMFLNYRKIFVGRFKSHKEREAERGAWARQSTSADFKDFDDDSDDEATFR
For `AAGCGUG`, the 7-mer Z-score was 0.117.
With `UCCACAU` the 7-mer Z-score was -0.313.
For `AGCGUGG`, the 7-mer Z-score was 0.155.
`GUAAGGU` has a 7-mer Z-score of -0.05.
The 7-mer Z-score of `CAGGAGU` is reported as 0.131.
The 7-mer Z-score of `CUAGCUA` is reported as -0.34.
`AACAUCU` gave a 7-mer Z-score of 0.0642.
The 7-mer Z-score of `UUAUGGU` is reported as -0.0844.
The 7-mer Z-score of `GCAUGUA` is reported as 0.0696.
`UAUUGUC` gave a 7-mer Z-score of -0.325.
`ACGUGAC` has a 7-mer Z-score of -0.142.
`AGGACGG` gave a 7-mer Z-score of 0.381.
With `GCUGAAU` the 7-mer Z-score was -0.0409.
`CUCGUAG` has a 7-mer Z-score of -0.251.
For `UACCUAC`, the 7-mer Z-score was -0.171.
For `UAAAUCG`, the 7-mer Z-score was 0.707.
For `GGAGAGU`, the 7-mer Z-score was -0.19.
With `AUGGUUG` the 7-mer Z-score was -0.104.
`UCUACAG` has a 7-mer Z-score of -0.197.
`ACAUUUG` has a 7-mer Z-score of -0.237.
